Results from different studies.
Each line is one published result; not all experiments were run side by side. Values joined by “and” are separate records of one study, mostly repeats; a detail may differ.
Target: Dual specificity tyrosine-phosphorylation-regulated kinase 1B (DYRK1B, Homo sapiens, UniProt Q9Y463)

For `Cc1ccc(-c2c(/C=C(\C#N)C(=O)NC(C)C)n(CCCO)c3ncnc(N)c23)cc1`, the remaining binding was 100% (cell-free assay, competition with immobilised ligand; 1 µM).
For `CCn1cc(C(=O)O)c(=O)c2c(N)c(F)c(NC3CCCCC3)cc21`, the inhibition was 54.2% (kinase activity; 0.1 µM, together with: ATP at Km).
With `C=CC(=O)Nc1cccc(-c2cnc3[nH]cc(C(=O)NC(C)(C)C)c3n2)c1` the inhibition was 5% and 4% (kinase activity; 0.1 µM).
`COc1ccc(O)cc1-c1c[nH]c2ncc(-c3cncc(C(=O)N(C)C)c3)cc12` has an inhibition of 5.91% (binding, competition with immobilised ligand; 0.2 µM).
The inhibition of `Cc1cccc(O[C@H]2CCC[C@@H](C(C)CNCc3ccncc3)C2)c1` (relative stereo) is reported as -2% (cell-free assay; 10 µM).
The remaining binding of `C=CC(=O)N1CCCC(n2c(=O)c3ncccc3n(Cc3ccc(Oc4ccccc4)cc3)c2=O)C1` (stereo not drawn) is reported as 77% (cell-free assay, competition with immobilised ligand; 1 µM).
`C=CC(=O)N1CCc2ccc(-n3c(=O)ccc4cnc5ccc(-c6cnn(C)c6)cc5c43)cc21` gave a remaining binding of 68% (KINOMEscan; 1 µM; reference: DMSO control).
`C=CC(=O)N1Cc2nc(-c3cc(-c4cc(Cl)cnc4Cl)c(F)cc3F)n(-c3ccncn3)c2C1` gave an inhibition of 10.4% (cell-free assay; 1 µM).
`COc1cc(-n2cc3cc(F)cc(C(N)=O)c3n2)cc(Cl)c1C1CC(O)(CCO)Cc2ccccc21` (stereo not drawn) gave an inhibition of 1.94% (enzyme activity, inhibitor; 10 µM).
The remaining binding of `CC(C)=CC1OC(C)(C)C2C=C3C(=O)C(Cl)=CC(O)C3C3C(O)C4OC4C(=O)C132` (stereo not drawn) is reported as 92% (cell-free assay, competition with immobilised ligand; 10 µM).
`NC(=O)[C@@H](O)C[C@H]1CCc2sc3ncnc(O[C@H]4CC[C@H](N5CCOCC5)CC4)c3c21` has an inhibition of 79% (enzyme activity, inhibitor; 10 µM).
The remaining binding of `Cc1ccc(-c2c[nH]nc2C(=O)Nc2cccnc2)c(C)c1` is reported as 5.5% (cell-free assay, competition with immobilised ligand; 10 µM).
`CN1CCN(Cc2ccc(NC(=O)c3cccc(C#Cc4cnc(N)c5ncccc45)c3)cc2C(F)(F)F)CC1` gave a remaining binding of 78% (cell-free assay, competition with immobilised ligand; 0.5 µM).
`COc1ccc(NC(=O)Nc2ccc3c(c2)C(=O)N(C(C)CO)CC(C)C(CN(C)Cc2ccc4c(c2)OCO4)O3)cc1` (stereo not drawn) has a remaining binding of 55% (binding, competition with immobilised ligand; 10 µM).
`CNS(=O)(=O)Nc1nccc(Cc2c(C)c3ccc(Oc4ncccc4F)cc3oc2=O)c1F` gave a remaining binding of 61% (cell-free assay, competition with immobilised ligand; 10 µM).
With `COCC12C(=O)NC3C4(C(OC)CC1O)C1CC5(O)C(OC)C(O)C(OC(C)=O)(C1C5OC(=O)c1ccccc1)C3(O)C(OC)C24` (stereo not drawn) the remaining activity was 110% and 108% (kinase activity, inhibitor, ProQinase kinase profiling; 25 µM; reference: control).
With `C=C1CCCCCCCCCC(CO)C1=O` (stereo not drawn) the remaining signal was 100% (cell-free assay; 10 µM).
`O=C(Nc1cc(-c2ccnc3[nH]ccc23)c(Cl)cn1)[C@H]1CCC[C@@H](NC(=O)C(F)(F)F)C1` gave a remaining binding of 17% (binding, competition with immobilised ligand; 0.1 µM).

Excerpt of the above:
For `Cc1ccc(-c2c(/C=C(\C#N)C(=O)NC(C)C)n(CCCO)c3ncnc(N)c23)cc1`, the remaining binding was 100% (cell-free assay, competition with immobilised ligand; 1 µM).
For `CCn1cc(C(=O)O)c(=O)c2c(N)c(F)c(NC3CCCCC3)cc21`, the inhibition was 54.2% (kinase activity; 0.1 µM, together with: ATP at Km).
With `C=CC(=O)Nc1cccc(-c2cnc3[nH]cc(C(=O)NC(C)(C)C)c3n2)c1` the inhibition was 5% and 4% (kinase activity; 0.1 µM).
